Experimental data of several laboratories.
A part holds a random share of what one study measured.

Study 1
Target: PABPC1L2, full length, GST fusion (mouse, UniProt A0ABA7IW68)
Technique: RNAcompete
Molecule type: RNA
Sample: in vitro
Tested at: 20 nM
Setting: 7-mer, probes averaged, single round
Reference: mean of 7-mers
Reading: higher = stronger binding
Residues (chain): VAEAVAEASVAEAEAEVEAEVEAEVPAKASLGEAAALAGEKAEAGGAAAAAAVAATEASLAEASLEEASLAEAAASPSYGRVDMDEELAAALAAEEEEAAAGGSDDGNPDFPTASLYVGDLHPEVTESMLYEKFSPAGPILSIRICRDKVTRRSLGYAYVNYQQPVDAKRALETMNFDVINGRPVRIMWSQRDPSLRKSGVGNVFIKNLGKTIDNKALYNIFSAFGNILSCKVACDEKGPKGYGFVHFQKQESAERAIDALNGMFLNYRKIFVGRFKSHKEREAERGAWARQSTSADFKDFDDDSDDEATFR
Strand	7-mer Z-score
GCCUACG	-0.271
CUAUAGU	-0.403
UGCAAAU	-0.0754
CACCGUG	-0.108
UAGUUGG	-0.0428

Study 2
Target: Ras GTPase-activating protein-binding protein 1, RRM domain (G3BP1, Homo sapiens, UniProt Q13283)
Chain of UniProt Q13283 (whole entry, looked up): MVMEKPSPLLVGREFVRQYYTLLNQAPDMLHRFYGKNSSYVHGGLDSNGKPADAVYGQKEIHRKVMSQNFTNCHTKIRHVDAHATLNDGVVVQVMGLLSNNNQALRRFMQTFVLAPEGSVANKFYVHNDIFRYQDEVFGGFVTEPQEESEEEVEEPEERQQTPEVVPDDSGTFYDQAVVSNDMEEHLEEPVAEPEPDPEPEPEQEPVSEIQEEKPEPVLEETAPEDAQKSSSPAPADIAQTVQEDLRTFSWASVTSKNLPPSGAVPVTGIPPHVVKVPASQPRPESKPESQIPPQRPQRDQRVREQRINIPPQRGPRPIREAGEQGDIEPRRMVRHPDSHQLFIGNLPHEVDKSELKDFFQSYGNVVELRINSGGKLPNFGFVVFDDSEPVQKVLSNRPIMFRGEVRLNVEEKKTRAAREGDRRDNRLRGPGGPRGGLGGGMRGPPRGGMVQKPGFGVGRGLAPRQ
Technique: RNA Bind-n-Seq
Molecule type: RNA
Sample: in vitro
Tested at: 1 µM
Setting: whole 134-nt RNA, ends assumed
Together with: 150 mM KCl
Reference: input library
Reading: higher = stronger binding
Strand	log2 enrichment
GGGAGUUCUACAGUCCGACGAUCUGUUGAAAUGGGACAGUUGGCAGCGGCUCUGAUGAGCCCGAGAAGAGGCCUGCCCUUGGGUGCGGAGUCUCCCUCCGCACGAUGCUCCCAUGGAAUUCUCGGGUGUCAAGG	-0.61
GGGAGUUCUACAGUCCGACGAUCACCAUGCAGGUGGGCAAAUUUGGGAAGUGGGGCAAGGGGGGGAUAGGGAGGGGGGUAACACUUUGGGAACAGGUGGUCCCAGGUCGUUUCUGGAAUUCUCGGGUGUCAAGG	-0.417
GGGAGUUCUACAGUCCGACGAUCUGGCCCUGGUGGCAUGCGGGGAGGAGGAGGUGGCCUCAUGGAUCGUGGUGGUCCCGGUGGAAUGUUCAGAGGUGGCCGUGGUGGAGACAGUGGAAUUCUCGGGUGUCAAGG	0.818
GGGAGUUCUACAGUCCGACGAUCUUUCUGCAGCAUUAGAGAAGGCCCAAGAAGAAGCCCGUCAGCAGCAAGAAACAUUAGCCAUUCAAGUAAGCAAUGGAUGAUGAAUUAGAGUGGAAUUCUCGGGUGUCAAGG	-0.148

Study 3
Target: Histone acetyltransferase KAT6A, both winged helices, GST fusion (KAT6A, Homo sapiens, UniProt Q92794, residues 1-181)
Technique: protein binding microarray
Molecule type: double-stranded DNA, one strand shown
Sample: in vitro
Tested at: not given
Setting: 8-mer, flanks averaged, mean of 2 arrays, mostly near background
Reference: not given
Reading: higher = stronger binding
Target sequence (chain): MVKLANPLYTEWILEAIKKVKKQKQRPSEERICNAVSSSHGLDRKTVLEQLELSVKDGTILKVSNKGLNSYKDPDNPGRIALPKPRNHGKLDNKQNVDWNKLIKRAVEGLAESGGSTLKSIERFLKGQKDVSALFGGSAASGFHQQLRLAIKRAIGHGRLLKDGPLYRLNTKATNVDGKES
Strand	E-score
CCCTGTAA	-0.153
AGCATCGG	0.112
ATGTATAG	-0.163
ACACCCTG	-0.271
CTCCAGAG	-0.0778

Mixed results
Molecule	target	assay	test system	setting	how to read	quantity	result
PhoQ, residues 284 288 289 292 302 303 SNSSNI	PhoP, residues 12 14 15 18 19 IQSYL (Escherichia coli, UniProt P23836)	Sort-seq, measured: YFP reporter	E. coli	PhoQ-PhoP variant library, together with: 10 µM Mg2+	reference: high Mg2+ state, higher = stronger signaling	fold induction	0.495

A few entries again (study 2):
Strand	log2 enrichment
GGGAGUUCUACAGUCCGACGAUCUGUUGAAAUGGGACAGUUGGCAGCGGCUCUGAUGAGCCCGAGAAGAGGCCUGCCCUUGGGUGCGGAGUCUCCCUCCGCACGAUGCUCCCAUGGAAUUCUCGGGUGUCAAGG	-0.61
GGGAGUUCUACAGUCCGACGAUCACCAUGCAGGUGGGCAAAUUUGGGAAGUGGGGCAAGGGGGGGAUAGGGAGGGGGGUAACACUUUGGGAACAGGUGGUCCCAGGUCGUUUCUGGAAUUCUCGGGUGUCAAGG	-0.417
